Measured values collected from several papers.
Each line is one published result; not all experiments were run side by side. ± gives the spread as reported.

Structure (SMILES)	target or system	system	conditions	quantity	result
Cc1n[nH]c(C)c1CCOC(=O)c1cccc2c1oc(=O)n2C	–	BALB/c mouse, plasma	intravenous, 2 mg/kg	AUC(0-t)	7610 ng·h/mL
COc1cc([C@@H]2c3cc4c(cc3[C@@H](CC(C)(C)O)[C@H]3COC(=O)[C@H]23)OCO4)cc(OC)c1OC	Leishmania infantum	promastigote, iRFP	–	EC50	> 100 µM
COc1ccc(CC(=O)OCc2ccc(-n3cccn3)cc2)cc1F	–	BALB/c mouse, plasma	intravenous, 2 mg/kg	volume of distribution	0.45 L/kg
Cc1c(-c2ccccc2)nn2c(=O)cc(-c3cccc(-c4nnn[nH]4)c3)[nH]c12	–	mouse liver microsomes	1 µM	CLint	7.06 µL/min/mg
NC(=O)c1cn(-c2ccc(F)cc2)c2ccc(NCc3cccnc3)cc2c1=O	–	rat, plasma	iv, 0.2 mg/kg, 15 min, cassette dosing	concentration	83 nM
Cc1cc(NC(=O)c2cccc(NC(=O)C3=CC(C)(C)CCC3=O)c2)ccc1Nc1nccc(-c2cccnc2)n1	–	rat plasma	up to 120 min	plasma stability	stable
CCCSc1nc(N[C@@H]2C[C@H]2c2ccc(F)c(F)c2)c2nnn([C@@H]3C[C@H](O)[C@@H](O)[C@H]3O)c2n1	–	rat, female, plasma	oral, 20 mg/kg/day ticagrelor, week 52	AUC	9.3 µM·h
Cc1ncc(CCc2ccc3c(c2)c(=O)c(C(N)=O)cn3-c2ccc(F)cc2)cn1	–	rat, brain homogenate	–	fraction unbound	0.16
CC(C)n1nnc(-c2cc(O)cc(Nc3ncnn4ccc(CN5CCC(N)CC5)c34)c2)n1	–	mouse, plasma	subcutaneous, 30 mg/kg, 90 min	total plasma concentration	5.4 ± 1.1 µM
Nc1ncc(-c2ccc3ncnc(N4CCc5cc(F)c(Cl)cc54)c3c2)cn1	–	CD1 mouse, plasma	intravenous, 5 mg/kg	AUC(0-t)	762 ng·h/mL
COC(=O)[C@@H]1C(C=Nc2cc(Cl)ccc2O)=Cc2cc3c(cc2[C@H]1c1cc(OC)c(OC)c(OC)c1)OCO3	Leishmania infantum	promastigote, iRFP	–	EC50	14.2 ± 1.8 µM

Excerpt of the above:
Structure (SMILES)	target or system	system	conditions	quantity	result
Cc1n[nH]c(C)c1CCOC(=O)c1cccc2c1oc(=O)n2C	–	BALB/c mouse, plasma	intravenous, 2 mg/kg	AUC(0-t)	7610 ng·h/mL
NC(=O)c1cn(-c2ccc(F)cc2)c2ccc(NCc3cccnc3)cc2c1=O	–	rat, plasma	iv, 0.2 mg/kg, 15 min, cassette dosing	concentration	83 nM
